Results collected from several papers.
Each line is one published result; not all experiments were run side by side.
Target: Histone deacetylase 2 (HDAC2, Homo sapiens, UniProt Q92769)
Chain of UniProt Q92769 (whole entry, looked up): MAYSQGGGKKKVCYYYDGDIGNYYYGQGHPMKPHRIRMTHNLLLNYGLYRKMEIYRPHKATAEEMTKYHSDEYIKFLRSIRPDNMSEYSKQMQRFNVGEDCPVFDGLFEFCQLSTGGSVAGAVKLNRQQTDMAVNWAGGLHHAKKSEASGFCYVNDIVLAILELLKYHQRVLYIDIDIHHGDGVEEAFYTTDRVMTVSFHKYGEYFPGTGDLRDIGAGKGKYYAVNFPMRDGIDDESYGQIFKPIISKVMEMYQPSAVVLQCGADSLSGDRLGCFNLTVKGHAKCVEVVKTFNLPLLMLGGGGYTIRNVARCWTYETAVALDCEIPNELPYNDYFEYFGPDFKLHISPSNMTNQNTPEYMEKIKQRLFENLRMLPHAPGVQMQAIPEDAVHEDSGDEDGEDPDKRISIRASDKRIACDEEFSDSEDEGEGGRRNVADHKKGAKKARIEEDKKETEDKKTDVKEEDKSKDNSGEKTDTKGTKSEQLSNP
Mode: inhibitor

The IC50 of `O=C(CCc1ccc(CNC(C(=O)O)C2CCCCC2)cn1)NO` (stereo not shown) is reported as 1740 nM (enzyme activity).
For `O=C(/C=C/c1cccc(OS(=O)(=O)Oc2ccc(Br)cc2)c1)NO`, the IC50 was 201 nM (enzyme activity, fluorescence).
For `C[S@@](=N)(=O)c1ccc(C(=O)Nc2cc(-c3ccc(F)cc3)ccc2N)cc1`, the IC50 was 30 nM (enzyme activity, fluorescence).
`COc1ccc(C(=O)NO)cc1NC(=O)c1ccc(-c2ccccc2)cc1` gave a Kd of greater than 30.2 µM (competition pulldown; SW620 and MV4-11 lysate; 1 h).
The IC50 of `Cc1c(COc2cc(OCc3cccc(C#N)c3)c(CNC(C)(CO)CO)cc2Cl)cccc1-c1cccc(OCCCCCC(=O)NO)c1` is reported as 101 nM (enzyme activity).
With `O=C(NO)c1cnc(NC2(c3cccc(F)c3)CCCCC2)nc1` the Kd was greater than 30.2 µM (competition pulldown; SW620 and MV4-11 lysate; 1 h).
The IC50 of `Cc1c(COc2cc(OCc3cccc(C#N)c3)c(CN3CCCC[C@@H]3C(=O)O)cc2Cl)cccc1-c1cccc(OCCCCCCC(=O)NO)c1` is reported as 28 nM (enzyme activity).
For `Cc1nc2c(F)cc(-c3nc(Nc4ccc(CNC(=O)CCCCCCC(=O)NO)cc4)ncc3F)cc2n1C(C)C`, the IC50 was 520 nM (enzyme activity).
`CC[C@H](C)[C@@H]1NC(=O)[C@H](Cc2ccccc2C(F)(F)F)NC(=O)CCSCc2cccc(n2)CSCCCNC(=O)[C@H](CCCCCC(=O)NO)NC1=O` gave a Ki of 4 nM (enzyme activity, fluorescence).
`Cc1c(COc2cc(OCc3cccc(C#N)c3)c(CN3CCCC[C@H]3C(=O)O)cc2Cl)cccc1-c1cccc(OCCCCCC(=O)NO)c1` has an IC50 of 35 nM (enzyme activity).

For quick reference, copied from above:
`CC[C@H](C)[C@@H]1NC(=O)[C@H](Cc2ccccc2C(F)(F)F)NC(=O)CCSCc2cccc(n2)CSCCCNC(=O)[C@H](CCCCCC(=O)NO)NC1=O` gave a Ki of 4 nM (enzyme activity, fluorescence).
